Measured values gathered from unrelated publications.
Protocols differ between the studies behind these lines. Numbers after ± are the reported error.
POLB I260M: DNA polymerase beta (POLB, Homo sapiens, UniProt P06746, I260M)
SCTR: Secretin receptor (SCTR, Homo sapiens, UniProt P47872)

N#Cc1cccc(-c2ccc(=O)n(Cc3cccc(-c4ncc(OCC5CCN(CC(=O)N6CCN(CCNc7ccc8c(c7)C(=O)N(C7CCC(=O)NC7=O)C8=O)CC6)CC5)cn4)c3)n2)c1 (stereo not drawn) — Dmax (Hepatocyte growth factor receptor (MET, Homo sapiens, UniProt P08581); degrader; EBC-1): 99%
Cc1cn(C2CC(O)C(COP(=O)(O)OP(=O)(O)C(F)P(=O)(O)O)O2)c(=O)[nH]c1=O (mixture of isomers) — kpol/Kd (POLB I260M; substrate, single turnover kinetics): 60000 ± 40000 M⁻¹ s⁻¹
Cc1cc(=O)oc2c(F)c(OP(=O)(O)O)c(F)cc12 — Km (Tyrosine-protein phosphatase non-receptor type 11 (PTPN11, Homo sapiens, UniProt Q06124, E76A); enzyme activity, substrate): 177 µM
CC(C)C[C@H](NC(=O)[C@H](CCCNC(=N)N)NC(=O)CNC(=O)[C@@H](N)CC(C)C)C(=O)N[C@@H](CO)C(=O)N[C@@H](CCC(N)=O)C(=O)N[C@@H](CCC(=O)O)C(=O)N[C@@H](CC(C)C)C(=O)N[C@@H](Cc1c[nH]cn1)C(=O)N[C@@H](CCCNC(=N)N)C(=O)N[C@@H](CC(C)C)C(=O)N[C@@H](CCC(N)=O)C(=O)N[C@H](C(=O)N[C@@H](Cc1ccc(O)cc1)C(=O)N1CCC[C@H]1C(=O)N[C@@H](CCCNC(=N)N)C(=O)N[C@H](C(=O)N[C@@H](CC(N)=O)C(=O)N[C@H](C(=O)NCC(=O)N[C@@H](CO)C(=O)N[C@@H](CC(N)=O)C(=O)N[C@H](C(=O)N[C@@H](Cc1ccc(O)cc1)C(N)=O)[C@@H](C)O)[C@@H](C)O)[C@@H](C)O)[C@@H](C)O — cAMP level (Amylin receptor AMY3; CALCR/RAMP3 (Homo sapiens, UniProt O60896+P30988); agonist; HEK293 expressing AMY3; concentration not given, without amylin): no effect
CCCCOC(=O)NS(=O)(=O)c1sc(CC(C)C)cc1-c1cccc(CN(Cc2cccs2)C(C)=O)c1 — affinity ratio (Type-2 angiotensin II receptor (AGTR2, Homo sapiens, UniProt P50052); radioligand displacement; HEK293 membranes; reference: pig AT2R over human AT2R): ~200 fold
CCCCCCCCCCCC(=O)NCCC(=O)N[C@@H](CCCNC(=N)N)C(=O)N[C@@H](CCCNC(=N)N)C(=O)N[C@@H](CCCNC(=N)N)C(=O)N[C@@H](CCCNC(=N)N)C(=O)N[C@H](CCCNC(=N)N)C(=O)N[C@H](CCCNC(=N)N)C(=O)N[C@H](CCCNC(=N)N)C(=O)N[C@H](CCCNC(=N)N)C(=O)N[C@H](CCCNC(=N)N)C(=O)N[C@@H](CCCCNC(=S)Nc1ccc2c(c1)C(=O)OC21c2ccc(O)cc2Oc2cc(O)ccc21)C(N)=O — peak area (Jurkat; RP-HPLC fluorescence, refers to: intact peptide; culture medium; 6 h): 30.1%
C=CCC1C(=O)C=C(OC)C2(OC)C(C)C(c3ccc4c(c3)OCO4)OC12 (single isomer, unassigned; (-)) — transcriptional activity (Bile acid receptor (NR1H4, Homo sapiens, UniProt Q96RI1, H461F); reporter gene; HEK293T; concentration not given; reference: wild type): inhibited
COc1cccc(-c2cc(C(F)(F)F)nc(NCc3ccccc3)n2)c1 — Emax (SCTR; cAMP accumulation, positive allosteric modulator; CHO-K1 overexpressing SCTR; with: EC10-EC20 secretin peptide mix; reference: EC95 peptide mix): 62 ± 11%
NS(=O)(=O)Nc1ncnc(OCCOc2ncc(Br)cn2)c1-c1ccc(Br)cc1 — Vmax (metabolite formation; female Beagle dog, liver microsomes; 5 mg/kg daily for 4 weeks): 1030 ± 23 pmol/min/mg
CCCCC/C=C/C(=O)CCc1ccc(O)c(OC)c1 — IC50 (mAb 4-AT4; antibody binding, indirect competitive ELISA; with: coating antigen hapten 3-OVA): > 4 µg/mL
C=CCC1NC(=O)C=CC(=O)NC(C(N)=O)CCNC(=O)C(CCCNC(=O)c2cnccn2)NC(=O)C(Cc2ccco2)NC1=O (stereo not drawn) — enrichment factor (Vascular endothelial growth factor receptor 2 (KDR, Homo sapiens, UniProt P35968); DNA-templated library selection; one selection round): 1.4
Nc1nc2c(ncn2[C@H]2C[C@H](O)[C@@H](COP(=O)(O)OP(=O)(O)C(F)(F)P(=O)(O)O)O2)c(=O)[nH]1 — kpol (POLB I260M; nucleotide incorporation rate, substrate, single-turnover kinetics; single-nucleotide gapped DNA; 37 °C, I260M, misincorporation, with: dGTP opposite template A): 0.013 ± 0.002 s⁻¹
C[n+]1cn(C2OC(COP(=O)(O)OP(=O)([O-])OP(=O)(O)OCC3OC(n4cnc5c(=O)[nH]c(N)nc54)C(O)C3O)C(O)C2O)c2nc(NCc3ccccc3)[nH]c(=O)c21 (stereo not drawn) — relative inhibitory potency (cap-dependent translation, inhibitor; rabbit reticulocyte lysate; concentration not given; reference: m7GpppG): 14.7 fold
COc1ccc(CNc2nc(-c3ccc(OC)cc3)cc(C(F)(F)F)n2)cc1 — Emax (SCTR; cAMP, agonist): 17%
N=C(N)NC(=N)Nc1cccc(Cl)c1 — relative maximal response (Serotonin 3 (5-HT3) receptor (Homo sapiens, UniProt O95264+P46098); ion current, two-electrode voltage clamp; Xenopus oocytes; reference: 5-HT): 2.6
CCCCCCCC/C=C\CCCCCCCC(=O)OC[C@H]1OCC=C[C@@H]1OP(=O)(O)S (stereo partly drawn) — Emax (Lysophosphatidic acid receptor 2 (LPAR2, Homo sapiens, UniProt Q9HBW0); agonist, TGFα shedding): 35%
N#CCc1cccc(Cl)c1-c1ccc2[nH][11c](=O)[nH]c2c1 — reduction of bound radioactivity (Voltage-dependent calcium channel gamma-8 subunit, with AMPA receptor (Rattus norvegicus, UniProt Q8VHW5); autoradiography; rat hippocampus sections; concentration not given, with: JNJ-56022486 1 µM): > 30%
COc1cc(CCC(C)=O)ccc1O — IC50 (mAb 4-AT4; antibody binding, indirect competitive ELISA; with: coating antigen hapten 3-OVA): > 4 µg/mL
[64Cu+2].c1ccc(CNCc2ccc(CN3CCCN4CCNCCCN(CC4)CC3)cc2)nc1 — tissue uptake (CXCR4; NOD/SCID mouse, U87 and U87-stb-CXCR4 xenografts, heart; iv, 60 min, ex vivo): 2.12 ± 0.18 %ID/g
COc1ccc(CNc2nc3c(c(=O)[nH]2)[n+](C)cn3C2OC(COP(=O)(O)OP(=O)([O-])OP(=O)(O)OCC3OC(n4cnc5c(=O)[nH]c(N)nc54)C(O)C3O)C(O)C2O)cc1 (stereo not drawn) — relative inhibitory potency (cap-dependent translation, inhibitor; rabbit reticulocyte lysate; concentration not given; reference: m7GpppG): ~10 fold
Nc1nc2c(ncn2[C@H]2C[C@H](O)[C@@H](COP(=O)(O)OP(=O)(O)[C@H](F)P(=O)(O)O)O2)c(=O)[nH]1 — kpol ratio (DNA polymerase beta (POLB, Homo sapiens, UniProt P06746); quench-flow kinetics; opposite C; reference: R over S): 2 fold

For quick reference, copied from above:
COc1cccc(-c2cc(C(F)(F)F)nc(NCc3ccccc3)n2)c1 — Emax (SCTR; cAMP accumulation, positive allosteric modulator; CHO-K1 overexpressing SCTR; with: EC10-EC20 secretin peptide mix; reference: EC95 peptide mix): 62 ± 11%
NS(=O)(=O)Nc1ncnc(OCCOc2ncc(Br)cn2)c1-c1ccc(Br)cc1 — Vmax (metabolite formation; female Beagle dog, liver microsomes; 5 mg/kg daily for 4 weeks): 1030 ± 23 pmol/min/mg
